Measurements from different studies.
Numbered parts are unrelated; each lists some results of a single study. “And” joins repeats or separate records; there may be more than shown.
Chain of UniProt Q13237 (whole entry, looked up): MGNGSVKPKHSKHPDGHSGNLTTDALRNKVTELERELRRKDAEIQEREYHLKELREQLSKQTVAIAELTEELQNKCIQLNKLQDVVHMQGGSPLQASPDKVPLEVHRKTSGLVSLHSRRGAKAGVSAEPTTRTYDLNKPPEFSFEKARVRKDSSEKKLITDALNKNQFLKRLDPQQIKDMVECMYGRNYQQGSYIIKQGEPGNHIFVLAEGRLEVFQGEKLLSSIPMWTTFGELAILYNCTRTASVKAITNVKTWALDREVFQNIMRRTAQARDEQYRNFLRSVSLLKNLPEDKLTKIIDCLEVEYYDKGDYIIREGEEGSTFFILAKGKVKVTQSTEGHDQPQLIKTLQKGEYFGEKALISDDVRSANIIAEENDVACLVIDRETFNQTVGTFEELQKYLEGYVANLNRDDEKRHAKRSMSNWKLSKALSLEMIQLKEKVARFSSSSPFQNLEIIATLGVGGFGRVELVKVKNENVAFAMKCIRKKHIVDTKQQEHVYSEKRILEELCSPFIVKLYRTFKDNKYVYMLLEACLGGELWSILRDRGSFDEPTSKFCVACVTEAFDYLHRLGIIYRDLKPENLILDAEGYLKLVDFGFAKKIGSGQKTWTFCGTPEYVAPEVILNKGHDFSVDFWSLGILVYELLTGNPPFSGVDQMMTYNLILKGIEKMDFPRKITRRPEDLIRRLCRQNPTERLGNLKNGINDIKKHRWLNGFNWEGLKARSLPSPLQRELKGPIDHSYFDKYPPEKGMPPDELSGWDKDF
Chain of UniProt Q86YV6 (whole entry, looked up): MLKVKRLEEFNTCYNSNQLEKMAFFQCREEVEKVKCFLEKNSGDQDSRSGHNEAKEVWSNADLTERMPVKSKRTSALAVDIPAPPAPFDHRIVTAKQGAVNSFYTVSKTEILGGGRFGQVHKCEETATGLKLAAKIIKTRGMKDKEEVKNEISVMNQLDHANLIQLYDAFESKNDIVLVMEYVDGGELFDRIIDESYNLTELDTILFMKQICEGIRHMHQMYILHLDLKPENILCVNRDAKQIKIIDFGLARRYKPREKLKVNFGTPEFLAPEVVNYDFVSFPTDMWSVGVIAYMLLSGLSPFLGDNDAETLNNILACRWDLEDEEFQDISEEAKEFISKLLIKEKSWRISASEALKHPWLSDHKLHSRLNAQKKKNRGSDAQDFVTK
Chain of UniProt P51812 (whole entry, looked up): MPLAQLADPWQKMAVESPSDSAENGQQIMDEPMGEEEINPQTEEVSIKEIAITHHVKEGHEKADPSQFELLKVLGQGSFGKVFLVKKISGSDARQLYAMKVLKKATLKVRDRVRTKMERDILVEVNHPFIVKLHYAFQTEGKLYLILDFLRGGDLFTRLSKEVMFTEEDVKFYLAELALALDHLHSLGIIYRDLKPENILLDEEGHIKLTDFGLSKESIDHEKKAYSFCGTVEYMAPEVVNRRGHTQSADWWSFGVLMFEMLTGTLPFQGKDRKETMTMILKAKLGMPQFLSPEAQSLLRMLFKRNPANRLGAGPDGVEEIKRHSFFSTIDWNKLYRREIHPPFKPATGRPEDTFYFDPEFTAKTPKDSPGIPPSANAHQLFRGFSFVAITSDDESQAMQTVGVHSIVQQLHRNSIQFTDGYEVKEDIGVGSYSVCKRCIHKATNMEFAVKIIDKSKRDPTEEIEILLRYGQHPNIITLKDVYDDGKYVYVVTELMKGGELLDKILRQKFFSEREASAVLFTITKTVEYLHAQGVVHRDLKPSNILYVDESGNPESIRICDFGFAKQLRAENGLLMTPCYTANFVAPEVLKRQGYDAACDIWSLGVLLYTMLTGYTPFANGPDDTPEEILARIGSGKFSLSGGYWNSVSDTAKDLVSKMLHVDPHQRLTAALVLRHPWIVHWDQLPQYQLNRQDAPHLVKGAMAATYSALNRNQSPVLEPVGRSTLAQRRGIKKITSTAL
Chain of UniProt O14976 (whole entry, looked up): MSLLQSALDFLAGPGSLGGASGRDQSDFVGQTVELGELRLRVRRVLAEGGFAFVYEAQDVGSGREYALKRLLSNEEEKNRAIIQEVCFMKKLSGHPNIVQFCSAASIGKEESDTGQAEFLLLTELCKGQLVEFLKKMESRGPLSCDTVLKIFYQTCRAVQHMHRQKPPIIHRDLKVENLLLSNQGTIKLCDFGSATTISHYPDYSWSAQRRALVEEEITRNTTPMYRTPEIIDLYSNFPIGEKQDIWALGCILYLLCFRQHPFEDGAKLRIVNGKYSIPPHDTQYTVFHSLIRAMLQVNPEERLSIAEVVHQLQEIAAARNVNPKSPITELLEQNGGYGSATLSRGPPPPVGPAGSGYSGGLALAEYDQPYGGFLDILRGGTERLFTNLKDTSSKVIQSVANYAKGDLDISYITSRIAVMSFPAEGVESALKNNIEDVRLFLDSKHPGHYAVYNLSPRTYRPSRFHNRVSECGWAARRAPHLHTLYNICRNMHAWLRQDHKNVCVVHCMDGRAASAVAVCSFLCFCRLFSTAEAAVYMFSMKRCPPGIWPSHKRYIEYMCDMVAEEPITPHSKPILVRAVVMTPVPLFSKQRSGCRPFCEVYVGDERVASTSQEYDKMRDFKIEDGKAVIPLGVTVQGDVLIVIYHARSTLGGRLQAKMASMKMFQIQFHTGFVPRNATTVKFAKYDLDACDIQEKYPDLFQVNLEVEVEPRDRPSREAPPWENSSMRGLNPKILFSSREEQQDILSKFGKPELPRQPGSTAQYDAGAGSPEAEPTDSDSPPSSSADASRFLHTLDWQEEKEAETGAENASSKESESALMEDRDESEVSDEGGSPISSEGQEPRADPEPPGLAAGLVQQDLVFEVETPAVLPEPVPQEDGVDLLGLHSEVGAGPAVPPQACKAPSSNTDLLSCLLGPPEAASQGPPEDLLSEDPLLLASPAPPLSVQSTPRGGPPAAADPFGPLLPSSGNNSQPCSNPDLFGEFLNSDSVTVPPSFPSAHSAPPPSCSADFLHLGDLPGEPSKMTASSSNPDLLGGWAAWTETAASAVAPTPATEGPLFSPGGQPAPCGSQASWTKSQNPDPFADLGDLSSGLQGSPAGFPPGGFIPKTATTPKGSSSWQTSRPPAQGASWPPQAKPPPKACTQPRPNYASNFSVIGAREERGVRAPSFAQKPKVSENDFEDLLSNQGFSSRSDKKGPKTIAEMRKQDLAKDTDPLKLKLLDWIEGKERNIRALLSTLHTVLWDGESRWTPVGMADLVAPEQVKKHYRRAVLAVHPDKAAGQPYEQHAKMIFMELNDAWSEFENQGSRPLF
Chain of UniProt Q9NQU5 (whole entry, looked up): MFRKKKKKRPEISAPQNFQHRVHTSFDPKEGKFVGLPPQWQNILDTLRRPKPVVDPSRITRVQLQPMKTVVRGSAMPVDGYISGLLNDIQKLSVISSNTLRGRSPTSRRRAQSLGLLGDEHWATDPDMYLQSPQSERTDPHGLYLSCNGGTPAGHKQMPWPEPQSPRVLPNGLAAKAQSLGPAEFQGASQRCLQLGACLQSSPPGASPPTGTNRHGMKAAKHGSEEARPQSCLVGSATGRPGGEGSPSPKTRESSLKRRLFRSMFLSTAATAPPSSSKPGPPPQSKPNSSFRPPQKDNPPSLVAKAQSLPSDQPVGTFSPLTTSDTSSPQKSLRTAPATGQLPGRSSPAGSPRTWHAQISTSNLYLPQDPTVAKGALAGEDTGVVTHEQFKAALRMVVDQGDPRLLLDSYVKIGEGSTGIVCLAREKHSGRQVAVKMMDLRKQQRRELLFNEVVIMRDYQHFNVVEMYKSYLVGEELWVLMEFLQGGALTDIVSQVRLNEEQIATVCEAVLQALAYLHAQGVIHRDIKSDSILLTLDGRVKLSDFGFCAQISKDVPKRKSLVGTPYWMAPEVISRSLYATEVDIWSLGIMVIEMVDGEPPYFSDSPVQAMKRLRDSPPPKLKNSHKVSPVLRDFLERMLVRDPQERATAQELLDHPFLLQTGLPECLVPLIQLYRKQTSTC

Study 1 — SMILES: O=C(Nc1ccccc1)Nc1cccc(Oc2ccc3nccn3n2)c1; effect on: binding; concentration: 1 µM; quantity: remaining binding
WNK2 (Homo sapiens, UniProt Q9Y3S1): 100%
MYLK4 (Homo sapiens, UniProt Q86YV6): 100%
PRKG2 (Homo sapiens, UniProt Q13237): 100%
RPS6KB1 (Homo sapiens, UniProt P23443): 100%
GAK (Homo sapiens, UniProt O14976); competition with immobilised ligand: 100%
Ribosomal protein S6 kinase alpha-3, N-terminal kinase domain (RPS6KA3, Homo sapiens, UniProt P51812); competition with immobilised ligand: 100%
DCLK2 (Homo sapiens, UniProt Q8N568): 100%
PAK6 (Homo sapiens, UniProt Q9NQU5): 100%

Study 2 — effect on: binding; action: competitor; method: NanoBRET; cell line: HEK293; quantity: normalized BRET
Compound: CN1CCC[C@H]1COc1nc2c(c(N3CCN(C(=O)C4CC4)[C@@H](CC#N)C3)n1)CCN(c1cccc3cccc(Cl)c13)C2
KRAS G12D: GTPase KRas (KRAS, Homo sapiens, UniProt P01116, G12D)
KRAS Q61R: GTPase KRas (KRAS, Homo sapiens, UniProt P01116, Q61R)
KRAS G12D; 15.2 nM: 107% and 103% and 97.3%
GTPase KRas (KRAS, Homo sapiens, UniProt P01116, Q61H); 33.3 µM: 6.88% and 7.8% and 7.68%
KRAS Q61R; 33.3 µM: 87.8% and 71.2% and 59.6%
KRAS G12D; 11.1 µM: 64.1% and 90.4% and 75.4%
GTPase KRas (KRAS, Homo sapiens, UniProt P01116, Q61L); 5.08 nM: 95.1% and 90.4% and 96.7%
KRAS Q61R; 3.7 µM: 79.6% and 97.3% and 70.7%
GTPase KRas (KRAS, Homo sapiens, UniProt P01116, G13D); 11.1 µM: 23.2% and 21.6% and 18.3%
KRAS G12D; 412 nM: 106% and 94.4% and 93.4%

Single results of other studies
CRBN/Zinc finger protein Helios: CRBN/Zinc finger protein Helios (Homo sapiens, UniProt Q96SW2+Q9UKS7)
Chain of UniProt Q96SW2 (whole entry, looked up): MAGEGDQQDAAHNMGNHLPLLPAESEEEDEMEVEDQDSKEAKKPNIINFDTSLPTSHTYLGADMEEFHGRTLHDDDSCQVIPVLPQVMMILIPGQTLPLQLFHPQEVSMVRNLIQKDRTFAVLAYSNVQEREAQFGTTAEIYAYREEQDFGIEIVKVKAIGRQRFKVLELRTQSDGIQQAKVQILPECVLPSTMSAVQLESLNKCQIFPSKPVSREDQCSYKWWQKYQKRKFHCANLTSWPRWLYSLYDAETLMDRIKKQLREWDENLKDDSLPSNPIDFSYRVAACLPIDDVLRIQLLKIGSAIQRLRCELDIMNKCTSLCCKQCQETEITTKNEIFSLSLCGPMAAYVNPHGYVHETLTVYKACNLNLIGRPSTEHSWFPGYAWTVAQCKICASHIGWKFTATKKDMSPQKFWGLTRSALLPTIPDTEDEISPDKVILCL
Chain of UniProt Q9UKS7 (whole entry, looked up): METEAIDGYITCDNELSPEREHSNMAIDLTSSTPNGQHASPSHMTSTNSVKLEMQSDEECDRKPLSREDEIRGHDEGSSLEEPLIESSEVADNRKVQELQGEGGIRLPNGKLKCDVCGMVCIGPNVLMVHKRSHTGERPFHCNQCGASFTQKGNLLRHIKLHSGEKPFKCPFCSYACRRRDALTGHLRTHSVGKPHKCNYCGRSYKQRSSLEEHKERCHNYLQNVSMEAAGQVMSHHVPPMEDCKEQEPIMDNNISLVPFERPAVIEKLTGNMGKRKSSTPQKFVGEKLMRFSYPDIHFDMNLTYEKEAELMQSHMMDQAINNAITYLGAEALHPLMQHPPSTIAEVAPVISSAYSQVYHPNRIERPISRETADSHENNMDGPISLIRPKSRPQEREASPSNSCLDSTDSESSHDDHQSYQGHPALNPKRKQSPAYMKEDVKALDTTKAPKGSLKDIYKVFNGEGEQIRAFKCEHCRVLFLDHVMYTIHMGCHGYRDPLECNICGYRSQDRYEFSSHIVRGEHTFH
O=C1CCC(N2Cc3c(ccc4c3OCC43CCN(Cc4ccccc4)CC3O)C2=O)C(=O)N1 (stereo not shown)
protein remaining (CRBN/Zinc finger protein Helios; degrader, HiBiT; HEK293; 0.5081 nM): 104%

C#CCN1C(=O)C(O)(C(=O)O)Oc2cc(F)ccc21 (stereo not shown)
inhibition (Echinochloa crus-galli; fresh weight; 150 g ai/ha, post-emergence treatment): 44.2% and 47.5% and 47.7%

Cn1cc(-c2cccc(CN3CCC4(CC3)COc3c4ccc4c3CN([C@@H]3CCC(=O)NC3=O)C4=O)c2)cn1
protein remaining (CRBN/Zinc finger protein Helios; degrader, HiBiT; HEK293; 333.3 nM): 9.83% and 9.21%

For quick reference, copied from above (study 2):
KRAS G12D; 15.2 nM: 107% and 103% and 97.3%
GTPase KRas (KRAS, Homo sapiens, UniProt P01116, Q61H); 33.3 µM: 6.88% and 7.8% and 7.68%
